Measured values pooled from the literature.
Every numbered part comes from another study and shows a few of its results, in no order. Substitutions count along the parent as printed.

Series 1
Target: HLA class I histocompatibility antigen, A alpha chain, allele A*80:01 (Homo sapiens, UniProt P04439)
Observed: peptide-MHC binding
Molecule type: peptide
Tested at: concentration not given
`VLLISDPGL` — result for binding: “inactive”.
`ESDPEGALW`: binding “inactive”.
For `LKEKSSLRY`, binding read “inactive”.
For `FHRKKTDAL`, binding read “inactive”.

Series 2
Target: CCND1, cyclin fold, Cln2 fusion (human)
Method: yeast growth competition, sequencing
Matrix: yeast
Notes: weak parent motif
Relative to: not given
Direction: higher = stronger binding
Parent: viral docking peptide; TSVRRALFTGGSD
For `TSVRRALFTDGSD [G10D]`, “normalised enrichment score” read 1.08.
`TSLRRALFTGGSD [V3L]` — result for “normalised enrichment score”: 0.337.
For `TAVRRALFTGGSD [S2A]`, “normalised enrichment score” read 0.207.
Under “normalised enrichment score”, `TSVRRALFTGGWD [S12W]` is recorded as 0.304.
For `TSVRRWLFTGGSD [A6W]`, “normalised enrichment score” read 0.353.
For `TSVRRALFMGGSD [T9M]`, “normalised enrichment score” read 0.432.
Under “normalised enrichment score”, `TSCRRALFTGGSD [V3C]` is recorded as 0.616.
Under “normalised enrichment score”, `TSVRRALFTGNSD [G11N]` is recorded as 0.296.
`TSVRRALFTGMSD [G11M]`: “normalised enrichment score” 0.291.
`TSVRRALFTGGPD [S12P]`: “normalised enrichment score” 0.456.
For `TSVRRALMTGGSD [F8M]`, “normalised enrichment score” read -0.229.
Under “normalised enrichment score”, `TSVRRALFTGGDD [S12D]` is recorded as 0.984.
`TSVNRALFTGGSD [R4N]`: “normalised enrichment score” 0.36.
For `TSKRRALFTGGSD [V3K]`, “normalised enrichment score” read 0.157.
For `TSVERALFTGGSD [R4E]`, “normalised enrichment score” read 0.199.
For `TSVRRAHFTGGSD [L7H]`, “normalised enrichment score” read -0.0905.
`TSVFRALFTGGSD [R4F]`: “normalised enrichment score” 0.513.
For `TSVRRALGTGGSD [F8G]`, “normalised enrichment score” read -0.0203.
`TSVRTALFTGGSD [R5T]` — result for “normalised enrichment score”: -0.262.
For `TFVRRALFTGGSD [S2F]`, “normalised enrichment score” read 0.796.
Under “normalised enrichment score”, `TSVRRILFTGGSD [A6I]` is recorded as 0.781.
`TSVRRALVTGGSD [F8V]`: “normalised enrichment score” -0.163.
`TSVRRALETGGSD [F8E]` — result for “normalised enrichment score”: -0.373.

Series 3
Target: Hepatocyte nuclear factor 3-alpha (Foxa1, Mus musculus, UniProt P35582, residues 1-468, full length assumed)
Method: EMSA with sequencing
Molecule type: double-stranded DNA, one strand shown
Matrix: in vitro
Tested at: 10 and 20 nM
Notes: whole designed probe, mean of two concentrations, ends assumed
Relative to: negative control set to 0
Direction: higher = stronger binding
Constant ends, left off below: GTGAGCGGTGCCCATTGATGGGGAAC … TTTCACTGGGATCGTGGGGAC
Construct (chain): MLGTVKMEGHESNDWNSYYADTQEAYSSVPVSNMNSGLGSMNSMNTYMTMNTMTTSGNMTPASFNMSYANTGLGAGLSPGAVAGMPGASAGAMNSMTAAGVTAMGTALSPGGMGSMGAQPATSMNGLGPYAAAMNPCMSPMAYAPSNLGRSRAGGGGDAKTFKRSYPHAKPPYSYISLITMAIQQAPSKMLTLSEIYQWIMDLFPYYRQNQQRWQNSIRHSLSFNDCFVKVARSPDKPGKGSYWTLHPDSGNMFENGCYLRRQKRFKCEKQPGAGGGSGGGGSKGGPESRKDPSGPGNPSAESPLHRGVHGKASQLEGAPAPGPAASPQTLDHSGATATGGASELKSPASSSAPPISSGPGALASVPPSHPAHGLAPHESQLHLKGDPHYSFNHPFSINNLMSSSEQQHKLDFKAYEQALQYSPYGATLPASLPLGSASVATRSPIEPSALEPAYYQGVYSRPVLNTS
`GGGTTCTTCTGAAGGCACATTGCACCTTCTAGAAGGGTATGACTCAGAAGGAAAGAGAGAAAAACCTCTACTGGCAAGAGGAAATGGCTGCAGAGATTACTTTATCTGAAAATGGCACACGCTTTTATTAAGACATAAATGCCAGTGATGGATTCTGCTCTTGGCGTGTGGCTGTGCTCCCCAGCCCTGAGGT` — result for “normalised bound fraction”: -0.0761 ratio.
`TCTAGAAAATGAGATGTGTTGAAGCGGGGAAGTGTTTGATTGTCAGGTCTAGAGGAAAAGAATAGGAAAAGTCTCCGAGCTTTGAATTTCCTGATGTTTACATAGTACAAAGGTTTATTAGAAGAGGCTGACGAATGTCTAAAAGGCTCAGTTTCTTCTATTGTATTTTCAAATAGCAGAGAAATAGCTTTAT` — result for “normalised bound fraction”: 0.43 ratio.
Under “normalised bound fraction”, `CCTAGGACCATCTTCTACTTATGAGAGTGAACTTCACTGTATGTCACCAATTCCGTACCTTGTCTATTGTTTAATAGTCGAGATACTGTCAAAGTAAACAAATGCTGCGACGATGTGGACTGAAGGGTATGGTCTTAACTCCAAATAAGCAAAGGAAGAAAAATACGTTTCTGGTTCGGCCTTTTCTCTCAGA` is recorded as 0.507 ratio.
`ACAGCCTGGTAATACCTCAGGTTCCCAAGAACTCCAGGGCCTGTAAACATGCCAGTCAGAGCTCGGCCTGCTTAGAAGGCCGATGGCCTTTGAGTAAATAAACAACACCTTGCATAAATCTCTGCACTTTGAGTGGCAAAGAGGCCATTCCCTGAGGGTGACTTGGAAAACCAGAGGTGCAGTGACTCAGCCT` — result for “normalised bound fraction”: 0.461 ratio.
For `ATGAAAAAGGATAGGAAGAAAGGGAGGAAGAGGAGGGGGACAGAGAGGAAGTAGGAAGGGAGAGCGATAAAGGAAGGAAAGAAGATAAATTCTGTAATCTGCCCCACCCAGACTGGCATAGCACAACCTGGAATGGACTATTTAAGTCCCAAACATGATGTTAAGAGAATAATTCAGATTTCTAGGAATGCAC`, “normalised bound fraction” read -0.067 ratio.
For `GACAGTACATGTTTTAGGATTTTTGGACCACACAGTCTCTGTCACAATGACTCAGCTTTGCCATTGTAGCGTGCAAACAGCCACAAACCATATGCAAACAAAGAGCGTCTGGTTGTATGCCAATAAAACTTTATTTACAAAAGCAGGAGGACAGTGGAGTTGGCTTGCAGACAGTCATTTGCAGAGCCCTGAT`, “normalised bound fraction” read 0.443 ratio.
`ATTAATACATTACCTCAAGAAGAAAAAACTAGTGAGAACACACAACTTATATAAAAACATTATCTTTAAAAGACATTGGAAATTGTATTTCCTGTTTACTTTGTGTTCTTGTTTAAATGTCAAAGAGAGAAAAACCCTAGTGAATTTAAAAAAAAAAAAAAAAAAAATTAGAAAATACAAATTAGTAAAAATA` — result for “normalised bound fraction”: 0.391 ratio.
`GTCCAGAAACCTGTCACACTACTAATTTCAACCCCTTGGCCAGAGCTCAGGCACATGGCTGCACCTAGCTGCAAGGGAAGCTAGGAAGGTCTGTGTTTATTCTGCACAGCCATGAACTCAGCTAAAAGCCAATCAAATATTTGTAAATAAACAAAACAATTTTAGATAGTGATGTATCCTGGGAAAGAACAAA` — result for “normalised bound fraction”: 0.45 ratio.

Series 4
Target: UBE2D4 UBC core domain (UniProt Q9Y2X8)
Method: yeast two-hybrid
Matrix: yeast
Notes: mostly zero background
Relative to: not given
Direction: higher = stronger interaction
B1: RNF149 RING domain (UniProt Q8NC42); chain EKGIDVDAENCAVCIENFKVKDIIRILPCKHIFHRICIDPWLLDHRTCPMCKLDVIKALGYW
B2: UBE4A RING domain (UniProt Q14139); chain LQQQEEETYADACDEFLDPIMSTLMCDPVVLPSSRVTVDRSTIARHLLSDQTDPFNRSPLTMDQIRPNTELKEKIQRWLAERKQQKEQLE
B3: TRIM52 RING domain (UniProt Q96A61); chain PMQTLQEEAVCAICLDYFKDPVSISCGHNFCRGCVTQLWSKEDEEDQNEEEDEWEEEEDEEAV
Target sequence (chain): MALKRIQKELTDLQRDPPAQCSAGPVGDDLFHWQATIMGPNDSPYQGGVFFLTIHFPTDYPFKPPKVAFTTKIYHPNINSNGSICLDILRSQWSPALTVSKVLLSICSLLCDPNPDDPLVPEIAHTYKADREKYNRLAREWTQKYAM
Under “lacZ reporter activity”, `B1 (RNF149 RING domain)` is recorded as 0.
`B2 (UBE4A RING domain)` — result for “lacZ reporter activity”: 2100.
Under “lacZ reporter activity”, `B3 (TRIM52 RING domain)` is recorded as 0.

Series 5
Target: PABPC1L2, full length, GST fusion (mouse, UniProt A0ABA7IW68)
Method: RNAcompete
Molecule type: RNA
Matrix: in vitro
Tested at: 20 nM
Notes: 7-mer, probes averaged, single round
Relative to: mean of 7-mers
Direction: higher = stronger binding
Construct (chain): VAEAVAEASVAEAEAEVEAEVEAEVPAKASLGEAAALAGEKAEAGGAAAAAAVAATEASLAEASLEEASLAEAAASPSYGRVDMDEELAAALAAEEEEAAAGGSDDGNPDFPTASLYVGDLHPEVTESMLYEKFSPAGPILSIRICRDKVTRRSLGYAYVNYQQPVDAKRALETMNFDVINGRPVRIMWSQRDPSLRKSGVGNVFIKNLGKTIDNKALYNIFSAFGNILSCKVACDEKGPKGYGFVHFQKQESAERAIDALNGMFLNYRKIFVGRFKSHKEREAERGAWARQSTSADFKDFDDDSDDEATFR
The 7-mer Z-score of `AUCAGAG` is reported as -0.00833.
With `UGAUAAA` the 7-mer Z-score was 2.05.
`UGAGGAG` gave a 7-mer Z-score of 0.0605.
`UAAAUGC` has a 7-mer Z-score of 0.302.
With `ACCCCGU` the 7-mer Z-score was -0.367.
With `CCGAACG` the 7-mer Z-score was -0.168.
For `UGAUACA`, the 7-mer Z-score was -0.0264.
`GCCUGGG` gave a 7-mer Z-score of -0.11.

Excerpt of the above (series 2):
`TSVNRALFTGGSD [R4N]`: “normalised enrichment score” 0.36.
For `TSKRRALFTGGSD [V3K]`, “normalised enrichment score” read 0.157.
For `TSVERALFTGGSD [R4E]`, “normalised enrichment score” read 0.199.
